Results pooled from the literature.
Compare with care: the assays were run in different laboratories. ± gives the spread as reported.
Sequence of UniProt P21729 (whole entry, looked up): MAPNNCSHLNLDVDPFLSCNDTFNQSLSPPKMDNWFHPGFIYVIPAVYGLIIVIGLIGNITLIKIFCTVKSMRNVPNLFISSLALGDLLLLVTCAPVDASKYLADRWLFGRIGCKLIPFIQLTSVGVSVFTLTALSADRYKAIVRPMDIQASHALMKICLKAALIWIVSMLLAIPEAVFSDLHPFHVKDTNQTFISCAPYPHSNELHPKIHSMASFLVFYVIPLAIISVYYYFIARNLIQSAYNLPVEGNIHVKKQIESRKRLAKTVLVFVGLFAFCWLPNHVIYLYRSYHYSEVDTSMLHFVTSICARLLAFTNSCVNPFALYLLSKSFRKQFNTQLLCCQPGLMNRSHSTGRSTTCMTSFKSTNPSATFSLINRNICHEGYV

CC(=O)N[C@H](C(=O)N[C@@H](CCCCNC(=O)CCC(=O)OC[C@@H]1O[C@H](n2ccc(N)nc2=O)CS1)C(=O)N[C@H](C(=O)N[C@@H](CCCCNC(=O)CCC(=O)OC[C@@H]1O[C@H](n2ccc(N)nc2=O)CS1)C(=O)N[C@H](C(=O)N[C@@H](CCCCNC(=O)CCC(=O)OC[C@@H]1O[C@H](n2ccc(N)nc2=O)CS1)C(=O)N[C@@H](CCC(=O)O)C(=O)N[C@@H](CCC(=O)O)C(=O)N[C@@H](CCC(=O)O)C(N)=O)C(C)C)C(C)C)C(C)C
blood cell counts (refers to: white cells, neutrophils, lymphocytes, monocytes; mouse): no effect

CCCC[C@H](NC(=O)CCCCCCCNC(=O)c1ccc(NN)nc1)C(=O)N[C@H]1CC(=O)NCCCC[C@@H](C(N)=O)NC(=O)[C@H](Cc2c[nH]c3ccccc23)NC(=O)[C@H](CCCNC(=N)N)NC(=O)[C@@H](Cc2ccccc2)NC(=O)[C@H](Cc2c[nH]cn2)NC1=O [technetium-99m labelled]
tissue uptake (C57 mouse, B16/F1 melanoma, heart; 2 h, with: NDP-MSH 10 µg (6.07 nmol) co-injected): 0.32 ± 0.09 %ID/g

CSCC[C@H](NC(=O)[C@H](CC(C)C)NC(=O)[C@H](Cc1c[nH]cn1)NC(=O)CNC(=O)[C@@H](NC(=O)[C@H](C)NC(=O)[C@H](Cc1c[nH]c2ccccc12)NC(=O)[C@H](CCC(N)=O)NC(=O)CCCCCNC(=O)CNC(=O)CNC(=O)CNC(=O)CSC(C)=O)C(C)C)C(N)=O [technetium-99m labelled]
tissue uptake (nude mouse, PC-3 xenograft, lung; 30 min): 1.2 ± 0.32 %ID/g

N=C(N)NCCC[C@@H]1NC(=O)[C@H](CCCCNC(=O)CC[C@H](NC(=O)CCOCCOCCOCCOCCNC(=O)CN2CCN(CC(=O)O)CCN(CC(=O)O)CCN(CC(=O)O)CC2)C(=O)NCCCC[C@@H]2NC(=O)[C@@H](Cc3ccccc3)NC(=O)[C@H](CC(=O)O)NC(=O)CNC(=O)[C@H](CCCNC(=N)N)NC2=O)NC(=O)[C@@H](Cc2ccccc2)NC(=O)[C@H](CC(=O)O)NC(=O)CNC1=O [indium-111 labelled]
tissue uptake (female athymic nude mice, intestine; intravenous, 3 µCi, 24 h, U-87 MG glioma xenograft): 2.28 ± 0.78 %ID/g

CCCNC(=O)[C@H](CC(C)C)NC(=O)[C@H](Cc1c[nH]cn1)NC(=O)CNC(=O)[C@@H](NC(=O)[C@H](C)NC(=O)[C@H](Cc1c[nH]c2ccccc12)NC(=O)[C@H](CCC(N)=O)NC(=O)[C@@H](Cc1ccccc1)NC(=O)CCCCCNC(=O)CN1CCN(CC(=O)O)CCN(CC(=O)O)CCN(CC(=O)O)CC1)C(C)C [indium-111 labelled]
tissue uptake (Gastrin-releasing peptide receptor (Mus musculus, UniProt P21729); biodistribution; CF-1 mice, bone; intravenous, 1 h, with: bombesin 100 µg, blocking): 0.09 ± 0.03 %ID/g

CCCC[C@H](NC(=O)CNC(=O)CNC(=O)c1ccc(NN)nc1)C(=O)N[C@H]1CC(=O)NCCCC[C@@H](C(N)=O)NC(=O)[C@H](Cc2c[nH]c3ccccc23)NC(=O)[C@H](CCCNC(=N)N)NC(=O)[C@@H](Cc2ccccc2)NC(=O)[C@H](Cc2c[nH]cn2)NC1=O [technetium-99m labelled]
tissue uptake ratio (C57 mouse, B16/F1 melanoma-bearing; intravenous, 0.5 h; reference: tumour over muscle): 50.9

COc1cc(C(=O)NCCOCCOCCOCCNC(=O)c2ccc([18F])nc2)ccc1NC(=O)C1NC(CC(C)(C)C)C(C#N)(c2ccc(Cl)cc2F)C1c1cccc(Cl)c1F (stereo not shown)
tracer uptake (HepG2 tumour model; host not given, blood; 30 min, tumour-bearing): 3.9 %ID/g

CCCC[C@H](NC(=O)CNC(=O)[C@H](CO)NC(=O)CNC(=O)c1ccc(NN)nc1)C(=O)N[C@H]1CC(=O)NCCCC[C@@H](C(N)=O)NC(=O)[C@H](Cc2c[nH]c3ccccc23)NC(=O)[C@H](CCCNC(=N)N)NC(=O)[C@@H](Cc2ccccc2)NC(=O)[C@H](Cc2c[nH]cn2)NC1=O [technetium-99m labelled]
uptake (C57 mouse, B16/F1 melanoma, stomach; intravenous, 2 h): 0.48 ± 0.39 %ID/g

N=C(N)NCCC[C@@H]1NC(=O)[C@H](CCCCNC(=O)CCOCCOCCOCCOCCNC(=O)CN2CCN(CC(=O)O)CCN(CC(=O)O)CCN(CC(=O)O)CC2)NC(=O)[C@@H](Cc2ccccc2)NC(=O)[C@H](CC(=O)O)NC(=O)CNC1=O [indium-111 labelled]
tissue uptake (female athymic nude mice, intestine; intravenous, 3 µCi, 72 h, U-87 MG glioma xenograft): 0.67 ± 0.32 %ID/g

N=C(N)NCCC[C@@H]1NC(=O)[C@H](CCCCNC(=O)c2ccc(CNC34CNCCNCC(NCc5ccc(C(=O)NCCCC[C@@H]6NC(=O)[C@@H](Cc7ccc(O)cc7)NC(=O)[C@H](CC(=O)O)NC(=O)CNC(=O)[C@H](CCCNC(=N)N)NC6=O)cc5)(CNCCNC3)CNCCNC4)cc2)NC(=O)[C@@H](Cc2ccc(O)cc2)NC(=O)[C@H](CC(=O)O)NC(=O)CNC1=O [copper-64 labelled]
intact compound (HPLC; nude mouse, U-87 MG xenograft, liver; 1 h post injection): > 95%

COc1ccc(CNc2nc(N3CCC[C@H]3CO)ncc2C(=O)NN)cc1Cl
revertant count (Salmonella typhimurium; TA102; 250 µg/plate): 223 ± 12

N=C(N)NCCC[C@@H]1NC(=O)[C@H](CCCCNC(=O)CC[C@H](NC(=O)CCOCCOCCOCCOCCNC(=O)CC[C@H](NC(=O)CN2CCN(CC(=O)O)CCN(CC(=O)O)CCN(CC(=O)O)CC2)C(=O)NCCOCCOCCOCCOCCC(=O)N[C@@H](CCC(=O)NCCCC[C@@H]2NC(=O)[C@@H](Cc3ccccc3)NC(=O)[C@H](CC(=O)O)NC(=O)CNC(=O)[C@H](CCCNC(=N)N)NC2=O)C(=O)NCCCC[C@@H]2NC(=O)[C@@H](Cc3ccccc3)NC(=O)[C@H](CC(=O)O)NC(=O)CNC(=O)[C@H](CCCNC(=N)N)NC2=O)C(=O)NCCCC[C@@H]2NC(=O)[C@@H](Cc3ccccc3)NC(=O)[C@H](CC(=O)O)NC(=O)CNC(=O)[C@H](CCCNC(=N)N)NC2=O)NC(=O)[C@@H](Cc2ccccc2)NC(=O)[C@H](CC(=O)O)NC(=O)CNC1=O [indium-111 labelled]
tumour to tissue ratio (athymic nude mice, female, U-87 MG glioma xenograft, tumour and blood; intravenous, 1 h; reference: tumour over blood): 34.7 ± 7.84

CN[C@](C)(C[18F])C(=O)O
tracer uptake (DU-145 tumour model; host not given, tumour; 2 h, tumour-bearing): 4.3 %ID/g

Repeated from above:
COc1cc(C(=O)NCCOCCOCCOCCNC(=O)c2ccc([18F])nc2)ccc1NC(=O)C1NC(CC(C)(C)C)C(C#N)(c2ccc(Cl)cc2F)C1c1cccc(Cl)c1F (stereo not shown)
tracer uptake (HepG2 tumour model; host not given, blood; 30 min, tumour-bearing): 3.9 %ID/g
